Experimental data from different studies.
Parts stem from different laboratories: compare values within a part only.
Sequence of UniProt Q9BWU1 (whole entry, looked up): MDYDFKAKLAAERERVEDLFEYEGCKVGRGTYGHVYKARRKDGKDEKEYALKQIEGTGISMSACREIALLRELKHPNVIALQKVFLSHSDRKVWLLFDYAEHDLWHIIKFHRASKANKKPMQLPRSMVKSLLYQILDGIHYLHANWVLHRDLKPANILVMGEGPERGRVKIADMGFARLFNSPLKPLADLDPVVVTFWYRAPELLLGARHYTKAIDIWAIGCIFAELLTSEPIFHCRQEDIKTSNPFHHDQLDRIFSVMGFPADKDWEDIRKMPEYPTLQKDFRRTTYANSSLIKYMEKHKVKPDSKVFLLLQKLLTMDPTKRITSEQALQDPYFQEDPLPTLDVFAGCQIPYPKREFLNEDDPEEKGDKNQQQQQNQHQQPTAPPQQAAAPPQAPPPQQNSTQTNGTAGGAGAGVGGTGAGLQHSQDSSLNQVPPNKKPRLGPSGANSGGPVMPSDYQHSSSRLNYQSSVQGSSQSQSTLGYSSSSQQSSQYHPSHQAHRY
Sequence of UniProt Q14004 (whole entry, looked up): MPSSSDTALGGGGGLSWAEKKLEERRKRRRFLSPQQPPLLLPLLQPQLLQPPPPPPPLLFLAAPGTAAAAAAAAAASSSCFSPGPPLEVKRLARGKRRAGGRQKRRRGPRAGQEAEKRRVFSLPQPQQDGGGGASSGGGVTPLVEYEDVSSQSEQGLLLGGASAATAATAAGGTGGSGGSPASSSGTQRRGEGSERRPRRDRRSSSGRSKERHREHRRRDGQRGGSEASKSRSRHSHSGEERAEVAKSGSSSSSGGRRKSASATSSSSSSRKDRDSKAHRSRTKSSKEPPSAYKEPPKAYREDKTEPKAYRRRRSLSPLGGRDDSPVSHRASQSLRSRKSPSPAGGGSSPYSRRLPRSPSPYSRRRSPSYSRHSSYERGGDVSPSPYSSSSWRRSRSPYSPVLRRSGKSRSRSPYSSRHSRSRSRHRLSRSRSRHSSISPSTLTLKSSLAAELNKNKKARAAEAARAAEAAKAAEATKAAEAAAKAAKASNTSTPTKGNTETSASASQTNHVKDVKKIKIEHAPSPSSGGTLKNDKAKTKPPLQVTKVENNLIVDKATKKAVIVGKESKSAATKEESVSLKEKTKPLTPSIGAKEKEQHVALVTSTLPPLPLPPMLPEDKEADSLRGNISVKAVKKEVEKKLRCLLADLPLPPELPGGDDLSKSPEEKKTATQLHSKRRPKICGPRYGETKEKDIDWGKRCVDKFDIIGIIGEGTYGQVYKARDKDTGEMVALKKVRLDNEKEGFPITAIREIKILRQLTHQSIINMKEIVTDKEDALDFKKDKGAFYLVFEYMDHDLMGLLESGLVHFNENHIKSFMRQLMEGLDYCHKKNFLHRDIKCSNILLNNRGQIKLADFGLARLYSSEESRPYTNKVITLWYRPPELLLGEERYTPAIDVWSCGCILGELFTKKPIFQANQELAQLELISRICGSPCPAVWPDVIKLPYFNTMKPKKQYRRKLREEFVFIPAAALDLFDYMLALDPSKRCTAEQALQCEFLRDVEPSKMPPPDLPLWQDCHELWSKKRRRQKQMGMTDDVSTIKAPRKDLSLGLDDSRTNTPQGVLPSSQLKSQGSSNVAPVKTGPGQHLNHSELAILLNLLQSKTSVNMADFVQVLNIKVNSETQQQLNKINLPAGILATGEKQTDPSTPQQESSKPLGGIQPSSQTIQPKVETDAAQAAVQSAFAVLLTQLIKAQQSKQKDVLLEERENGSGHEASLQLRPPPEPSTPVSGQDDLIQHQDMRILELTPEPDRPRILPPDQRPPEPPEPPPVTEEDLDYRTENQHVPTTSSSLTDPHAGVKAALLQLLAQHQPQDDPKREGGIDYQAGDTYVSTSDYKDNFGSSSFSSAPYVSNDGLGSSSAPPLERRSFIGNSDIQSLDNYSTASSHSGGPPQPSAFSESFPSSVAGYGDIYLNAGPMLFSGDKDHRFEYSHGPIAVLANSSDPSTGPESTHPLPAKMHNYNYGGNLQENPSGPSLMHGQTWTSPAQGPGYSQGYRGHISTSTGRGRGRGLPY
Sequence of UniProt Q09013 (whole entry, looked up): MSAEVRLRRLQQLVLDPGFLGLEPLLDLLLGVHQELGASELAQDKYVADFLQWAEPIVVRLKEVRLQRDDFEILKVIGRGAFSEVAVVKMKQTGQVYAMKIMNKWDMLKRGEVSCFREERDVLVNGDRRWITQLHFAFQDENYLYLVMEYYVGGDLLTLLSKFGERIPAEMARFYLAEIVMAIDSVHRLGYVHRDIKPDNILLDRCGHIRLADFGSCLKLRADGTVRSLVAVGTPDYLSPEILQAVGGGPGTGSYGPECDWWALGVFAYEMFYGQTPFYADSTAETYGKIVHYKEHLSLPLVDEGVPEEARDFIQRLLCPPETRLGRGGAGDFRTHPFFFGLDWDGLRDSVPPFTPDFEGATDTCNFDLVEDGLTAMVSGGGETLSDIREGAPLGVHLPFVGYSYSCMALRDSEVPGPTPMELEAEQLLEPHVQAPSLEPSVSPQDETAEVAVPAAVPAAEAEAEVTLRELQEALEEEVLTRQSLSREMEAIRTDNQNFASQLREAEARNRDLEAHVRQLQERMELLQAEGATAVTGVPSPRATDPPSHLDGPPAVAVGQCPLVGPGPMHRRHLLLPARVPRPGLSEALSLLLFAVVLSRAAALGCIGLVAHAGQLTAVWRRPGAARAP
Sequence of UniProt P08631 (whole entry, looked up): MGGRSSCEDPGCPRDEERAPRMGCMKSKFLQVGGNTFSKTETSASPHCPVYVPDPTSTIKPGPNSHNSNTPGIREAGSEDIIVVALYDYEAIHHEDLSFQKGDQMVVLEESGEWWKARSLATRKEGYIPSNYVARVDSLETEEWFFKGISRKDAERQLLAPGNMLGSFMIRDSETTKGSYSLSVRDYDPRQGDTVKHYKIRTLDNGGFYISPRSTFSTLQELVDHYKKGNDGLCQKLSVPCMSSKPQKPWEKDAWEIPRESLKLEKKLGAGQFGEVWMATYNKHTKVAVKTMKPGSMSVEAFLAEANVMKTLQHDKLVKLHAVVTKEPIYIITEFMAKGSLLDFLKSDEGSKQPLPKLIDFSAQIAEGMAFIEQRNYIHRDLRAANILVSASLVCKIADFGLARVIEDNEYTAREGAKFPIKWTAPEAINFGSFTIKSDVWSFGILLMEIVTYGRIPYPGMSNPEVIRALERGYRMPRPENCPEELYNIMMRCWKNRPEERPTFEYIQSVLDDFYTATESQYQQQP
Sequence of UniProt Q00532 (whole entry, looked up): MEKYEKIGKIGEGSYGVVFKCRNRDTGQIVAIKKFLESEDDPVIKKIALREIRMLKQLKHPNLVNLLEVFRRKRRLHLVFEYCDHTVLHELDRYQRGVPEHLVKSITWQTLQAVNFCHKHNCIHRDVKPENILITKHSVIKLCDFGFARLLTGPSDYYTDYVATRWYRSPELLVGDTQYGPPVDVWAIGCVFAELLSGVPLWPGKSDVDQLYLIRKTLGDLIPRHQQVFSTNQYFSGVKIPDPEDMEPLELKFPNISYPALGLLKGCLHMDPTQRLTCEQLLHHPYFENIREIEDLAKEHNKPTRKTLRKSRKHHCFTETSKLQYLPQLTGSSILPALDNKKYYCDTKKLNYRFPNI

Series 1 — Compound: CN(C)c1ccc(C=C2C(=O)Nc3ccccc32)cc1; effect on: enzyme activity; mode: inhibitor; technique: radiometric
target	IC50 [µM]
NTRK2 (Homo sapiens, UniProt Q16620)	0.487
NTRK1 (Homo sapiens, UniProt P04629)	1.83
PDGFRA (Homo sapiens, UniProt P16234)	> 30
NTRK3 (Homo sapiens, UniProt Q16288)	0.082

Series 2 — SMILES: C=CCc1ccc(O)c(-c2cc(CC=C)ccc2O)c1; effect on: chloride current; technique: whole-cell voltage clamp
ANO1 D383A/del476-501: Anoctamin-1 (ANO1, Homo sapiens, UniProt Q5XXA6, D383A/del476-501)
Sequence of UniProt Q5XXA6 (whole entry, unmodified, looked up): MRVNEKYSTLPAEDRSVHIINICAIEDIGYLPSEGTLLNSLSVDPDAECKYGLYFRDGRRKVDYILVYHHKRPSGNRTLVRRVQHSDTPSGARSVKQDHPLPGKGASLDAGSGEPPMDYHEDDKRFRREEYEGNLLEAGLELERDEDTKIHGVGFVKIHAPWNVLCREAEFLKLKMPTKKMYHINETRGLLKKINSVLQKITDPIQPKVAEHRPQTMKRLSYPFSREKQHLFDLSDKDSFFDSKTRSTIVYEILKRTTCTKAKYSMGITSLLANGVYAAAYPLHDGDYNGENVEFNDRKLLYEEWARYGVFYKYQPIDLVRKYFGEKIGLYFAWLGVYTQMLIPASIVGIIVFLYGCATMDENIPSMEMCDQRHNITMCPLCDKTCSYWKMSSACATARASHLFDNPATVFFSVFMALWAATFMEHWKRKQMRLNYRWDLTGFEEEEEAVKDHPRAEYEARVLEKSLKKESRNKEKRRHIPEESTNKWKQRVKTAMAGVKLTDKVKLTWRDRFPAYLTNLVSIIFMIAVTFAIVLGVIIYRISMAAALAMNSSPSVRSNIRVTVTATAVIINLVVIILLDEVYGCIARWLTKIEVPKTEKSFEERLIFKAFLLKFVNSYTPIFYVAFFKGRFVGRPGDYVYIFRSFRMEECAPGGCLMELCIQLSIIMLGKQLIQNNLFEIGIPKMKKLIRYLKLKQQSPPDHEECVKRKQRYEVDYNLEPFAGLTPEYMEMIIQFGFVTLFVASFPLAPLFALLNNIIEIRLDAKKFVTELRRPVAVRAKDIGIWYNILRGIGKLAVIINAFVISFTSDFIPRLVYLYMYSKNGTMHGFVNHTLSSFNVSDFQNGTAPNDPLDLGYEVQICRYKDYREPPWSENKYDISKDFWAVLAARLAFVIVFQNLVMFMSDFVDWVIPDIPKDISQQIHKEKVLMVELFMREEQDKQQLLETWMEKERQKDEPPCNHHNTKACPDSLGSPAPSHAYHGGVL
target	test	setting	IC50 [µM]
Anoctamin-1 (ANO1, Homo sapiens, UniProt Q5XXA6, del476-501/K629R)	inhibitor	mutant K603R	251
Anoctamin-1 (ANO1, Homo sapiens, UniProt Q5XXA6, del476-501/E649D)	inhibitor	E623D mutant at 20 mV	31.4
ANO1 D383A/del476-501		membrane voltage -40 mV	24.5
Anoctamin-1 (ANO1, Homo sapiens, UniProt Q5XXA6, del476-501/M544I)	inhibitor	20 mV holding voltage	247
Anoctamin-1 (ANO1, Homo sapiens, UniProt Q5XXA6, del476-501/F807A)		membrane voltage -80 mV	25.7
Anoctamin-1 (ANO1, Homo sapiens, UniProt Q5XXA6, del476-501/M544V)	inhibitor	mutant M518V	171
Anoctamin-1 (ANO1, Homo sapiens, UniProt Q5XXA6, del476-501/F623A)		membrane voltage 40 mV	22.5
ANO1 D383A/del476-501		membrane voltage 80 mV	32.2

Series 3 — cell line: mouse MPNST tumor cells; technique: high-content immunofluorescence imaging; measured: nuclear SOX9; tested at: 10 µM; time: 12 h; setting: mean of 2 replicates; reference: DMSO control; reading: higher = more nuclear SOX9
SMILES	nuclear SOX9 intensity
O=C(Nc1ccc(Cl)cc1)C1CCCN(C(=O)c2cccc(-c3ccco3)c2)C1 (stereo not shown)	83.6 % of DMSO
COc1ccc(C2CNC(=O)C2)cc1OC1CCCC1 (stereo not shown)	88.8 % of DMSO
O=C(Nc1ccccc1C(=O)Nc1ccc(CCO)cc1)c1ccc([N+](=O)[O-])cc1	107 % of DMSO
Oc1ccc(-c2nc(-c3ccc(F)cc3)c(-c3ccncc3)[nH]2)cc1	195 % of DMSO
O=C1c2ccccc2-c2c(NCCc3ccccc3)c(=O)[nH]c3cccc1c23	285 % of DMSO
C[C@H]1O[C@@H](O[C@H]2[C@@H](O)C[C@H](O[C@H]3[C@@H](O)C[C@H](O[C@H]4CC[C@@]5(C)[C@H](CC[C@@H]6[C@@H]5C[C@@H](O)[C@]5(C)[C@@H](C7=CC(=O)OC7)CC[C@]65O)C4)O[C@@H]3C)O[C@@H]2C)C[C@H](O)[C@@H]1O	101 % of DMSO
O=C([C@@H](Cc1cccc(C(F)(F)F)c1)NS(=O)(=O)c1cc(F)c2c(c1)CCNC2)N1CCCC1	122 % of DMSO

Series 4 — effect on: enzyme activity; mode: inhibitor; tested at: 10 µM
Target: Calcium/calmodulin-dependent protein kinase type II subunit alpha (CAMK2A, Homo sapiens, UniProt Q9UQM7)
Sequence of UniProt Q9UQM7 (whole entry, looked up): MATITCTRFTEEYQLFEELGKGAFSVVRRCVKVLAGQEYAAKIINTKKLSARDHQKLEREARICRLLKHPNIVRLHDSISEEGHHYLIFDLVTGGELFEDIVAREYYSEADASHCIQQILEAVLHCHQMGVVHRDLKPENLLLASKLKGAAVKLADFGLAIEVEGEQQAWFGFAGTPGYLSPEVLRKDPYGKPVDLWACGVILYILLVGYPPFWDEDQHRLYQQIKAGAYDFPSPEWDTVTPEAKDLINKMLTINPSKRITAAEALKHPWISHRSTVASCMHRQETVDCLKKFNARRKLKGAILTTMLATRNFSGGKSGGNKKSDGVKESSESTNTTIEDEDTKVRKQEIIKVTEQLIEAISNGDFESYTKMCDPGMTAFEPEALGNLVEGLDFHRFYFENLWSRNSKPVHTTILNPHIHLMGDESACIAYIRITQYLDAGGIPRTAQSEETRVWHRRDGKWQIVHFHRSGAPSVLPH
SMILES	inhibition
CCOC(=O)[C@H](CCc1ccccc1)N[C@H]1CCCN2CCC[C@@H](C(=O)O)N2C1=O	-5%
O=C1c2c(O)cc(O)cc2O[C@H](c2ccc(O)c(O)c2)[C@H]1O	-20%
O=C(/C=C/c1ccc(O)c(O)c1)O[C@@H]1C[C@@](OC(=O)/C=C/c2ccc(O)c(O)c2)(C(=O)O)C[C@@H](O)[C@@H]1O	-12%
O=C1C[C@@H](c2ccc(O)cc2)Oc2cc(O[C@@H]3O[C@H](CO)[C@@H](O)[C@H](O)[C@H]3O[C@@H]3OC[C@](O)(CO)[C@H]3O)ccc21	12%

Series 5 — tested at: 1 µM
SMILES: CC1=C(C#N)C(c2ccc3c(c2)c(NC(=O)c2ccccc2C)nn3C)C(C#N)=C(C)N1
target	test	remaining binding [%]
CDKL1 (Homo sapiens, UniProt Q00532)	binding, competition with immobilised ligand	72
ACVR1B (Homo sapiens, UniProt P36896)	cell-free assay, competition with immobilised ligand	80
CDK13 (Homo sapiens, UniProt Q14004)	cell-free assay, competition with immobilised ligand	87
PIK3CA (Homo sapiens, UniProt P42336, E542K)	cell-free assay, competition with immobilised ligand	91
MAP4K2 (Homo sapiens, UniProt Q12851)	cell-free assay, competition with immobilised ligand	99
STK36 (Homo sapiens, UniProt Q9NRP7)	cell-free assay, competition with immobilised ligand	87
MARK4 (Homo sapiens, UniProt Q96L34)	cell-free assay, competition with immobilised ligand	94
DMPK (Homo sapiens, UniProt Q09013)	cell-free assay, competition with immobilised ligand	99
NEK3 (Homo sapiens, UniProt P51956)	cell-free assay, competition with immobilised ligand	94
HCK (Homo sapiens, UniProt P08631)	cell-free assay, competition with immobilised ligand	66
MYLK2 (Homo sapiens, UniProt Q9H1R3)	cell-free assay, competition with immobilised ligand	89
Non-receptor tyrosine-protein kinase TYK2, JH1 (TYK2, Homo sapiens, UniProt P29597)	cell-free assay, competition with immobilised ligand	88
MAP3K3 (Homo sapiens, UniProt Q99759)	cell-free assay, competition with immobilised ligand	77
FLT3 (Homo sapiens, UniProt P36888, D835V/ITD)	cell-free assay, competition with immobilised ligand	76
Tyrosine-protein kinase ABL1, non-phosphorylated (ABL1, Homo sapiens, UniProt P00519, F317L)	cell-free assay, competition with immobilised ligand	97
EGFR (Homo sapiens, UniProt P00533, L858R)	cell-free assay, competition with immobilised ligand	80
CDK19 (Homo sapiens, UniProt Q9BWU1)	competition binding	74
